Published values from different studies.
Protocols differ between the studies behind these lines. Values joined by “and” are separate records of one study, mostly repeats; a detail may differ. ± gives the spread as reported.
CHRM1: Muscarinic acetylcholine receptor M1 (CHRM1, Homo sapiens, UniProt P11229)
Sequence of UniProt P11229 (whole entry, looked up): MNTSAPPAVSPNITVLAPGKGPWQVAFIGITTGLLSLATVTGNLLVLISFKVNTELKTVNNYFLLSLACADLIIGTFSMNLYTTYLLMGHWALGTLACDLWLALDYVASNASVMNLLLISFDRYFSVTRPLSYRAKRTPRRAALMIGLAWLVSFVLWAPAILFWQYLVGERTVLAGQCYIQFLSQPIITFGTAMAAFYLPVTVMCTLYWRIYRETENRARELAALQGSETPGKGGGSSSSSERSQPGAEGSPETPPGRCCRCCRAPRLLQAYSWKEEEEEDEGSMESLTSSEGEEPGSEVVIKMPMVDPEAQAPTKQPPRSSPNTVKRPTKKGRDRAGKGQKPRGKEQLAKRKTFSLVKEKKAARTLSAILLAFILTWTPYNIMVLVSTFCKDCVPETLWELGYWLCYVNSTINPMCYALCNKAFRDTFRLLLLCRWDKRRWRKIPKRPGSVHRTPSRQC
Melanocortin receptor 4: Melanocortin receptor 4 (Mus musculus, UniProt P56450)
Sequence of UniProt P56450 (whole entry, looked up): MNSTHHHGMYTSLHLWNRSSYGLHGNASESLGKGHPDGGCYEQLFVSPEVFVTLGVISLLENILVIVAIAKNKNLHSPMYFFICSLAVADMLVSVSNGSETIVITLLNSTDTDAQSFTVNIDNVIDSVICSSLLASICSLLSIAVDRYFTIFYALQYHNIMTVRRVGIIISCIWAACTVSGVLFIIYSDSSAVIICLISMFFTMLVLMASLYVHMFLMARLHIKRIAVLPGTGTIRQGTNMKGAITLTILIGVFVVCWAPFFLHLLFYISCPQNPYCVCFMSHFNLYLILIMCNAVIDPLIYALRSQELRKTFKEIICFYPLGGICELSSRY
GPBAR1: G-protein coupled bile acid receptor 1 (GPBAR1, Homo sapiens, UniProt Q8TDU6)
Sequence of UniProt Q8TDU6 (whole entry, looked up): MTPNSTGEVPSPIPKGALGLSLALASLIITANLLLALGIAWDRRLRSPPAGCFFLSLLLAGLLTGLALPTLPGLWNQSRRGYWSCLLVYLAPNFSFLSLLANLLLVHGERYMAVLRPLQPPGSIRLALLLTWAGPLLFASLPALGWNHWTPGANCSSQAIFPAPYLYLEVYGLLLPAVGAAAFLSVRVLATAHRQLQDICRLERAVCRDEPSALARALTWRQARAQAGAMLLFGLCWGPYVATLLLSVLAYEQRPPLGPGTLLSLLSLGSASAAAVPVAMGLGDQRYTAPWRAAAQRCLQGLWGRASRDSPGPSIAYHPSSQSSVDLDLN
P2RY4: P2Y purinoceptor 4 (P2RY4, Homo sapiens, UniProt P51582)
Sequence of UniProt P51582 (whole entry, looked up): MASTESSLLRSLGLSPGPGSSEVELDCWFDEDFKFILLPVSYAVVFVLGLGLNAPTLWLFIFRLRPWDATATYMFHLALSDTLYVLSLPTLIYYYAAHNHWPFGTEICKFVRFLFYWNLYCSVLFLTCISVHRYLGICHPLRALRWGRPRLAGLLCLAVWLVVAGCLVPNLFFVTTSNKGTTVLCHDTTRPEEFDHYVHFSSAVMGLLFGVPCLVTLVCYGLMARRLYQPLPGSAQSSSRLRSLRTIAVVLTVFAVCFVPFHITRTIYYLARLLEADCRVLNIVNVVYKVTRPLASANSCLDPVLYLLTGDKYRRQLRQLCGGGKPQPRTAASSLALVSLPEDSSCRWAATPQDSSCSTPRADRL
DNA topoisomerase IB: DNA topoisomerase IB (Leishmania donovani, UniProt A0A3Q8IHS4+Q8WQM6)
ATP2A2: ATP2A2 (Sus scrofa, UniProt P11607)
Sequence of UniProt P11607 (whole entry, looked up): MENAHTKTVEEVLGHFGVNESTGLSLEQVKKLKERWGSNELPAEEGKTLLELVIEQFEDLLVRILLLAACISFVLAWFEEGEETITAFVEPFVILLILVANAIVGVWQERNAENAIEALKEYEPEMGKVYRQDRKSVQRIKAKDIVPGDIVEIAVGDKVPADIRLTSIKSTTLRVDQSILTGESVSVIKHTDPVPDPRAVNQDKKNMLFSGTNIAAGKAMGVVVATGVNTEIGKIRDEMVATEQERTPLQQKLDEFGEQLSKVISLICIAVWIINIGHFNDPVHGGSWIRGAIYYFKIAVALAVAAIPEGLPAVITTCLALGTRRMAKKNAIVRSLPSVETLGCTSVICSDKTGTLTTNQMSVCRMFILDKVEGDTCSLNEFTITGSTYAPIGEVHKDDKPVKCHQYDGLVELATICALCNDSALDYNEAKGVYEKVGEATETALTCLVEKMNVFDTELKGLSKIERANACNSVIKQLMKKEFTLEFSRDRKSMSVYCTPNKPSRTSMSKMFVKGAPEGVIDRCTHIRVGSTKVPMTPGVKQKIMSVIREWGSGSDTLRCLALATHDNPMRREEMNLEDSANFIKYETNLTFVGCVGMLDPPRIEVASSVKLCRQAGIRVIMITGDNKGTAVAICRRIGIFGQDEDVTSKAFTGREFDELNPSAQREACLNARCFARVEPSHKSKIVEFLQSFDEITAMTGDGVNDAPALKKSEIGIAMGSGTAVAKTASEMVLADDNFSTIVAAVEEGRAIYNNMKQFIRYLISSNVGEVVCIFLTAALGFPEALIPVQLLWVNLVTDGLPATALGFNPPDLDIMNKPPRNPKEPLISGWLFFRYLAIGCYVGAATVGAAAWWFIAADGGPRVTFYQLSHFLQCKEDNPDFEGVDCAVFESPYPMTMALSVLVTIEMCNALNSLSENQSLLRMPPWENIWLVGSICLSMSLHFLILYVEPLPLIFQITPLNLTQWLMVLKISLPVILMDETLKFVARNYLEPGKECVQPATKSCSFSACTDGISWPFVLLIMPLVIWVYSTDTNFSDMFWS
Sequence of UniProt P42261 (whole entry, looked up): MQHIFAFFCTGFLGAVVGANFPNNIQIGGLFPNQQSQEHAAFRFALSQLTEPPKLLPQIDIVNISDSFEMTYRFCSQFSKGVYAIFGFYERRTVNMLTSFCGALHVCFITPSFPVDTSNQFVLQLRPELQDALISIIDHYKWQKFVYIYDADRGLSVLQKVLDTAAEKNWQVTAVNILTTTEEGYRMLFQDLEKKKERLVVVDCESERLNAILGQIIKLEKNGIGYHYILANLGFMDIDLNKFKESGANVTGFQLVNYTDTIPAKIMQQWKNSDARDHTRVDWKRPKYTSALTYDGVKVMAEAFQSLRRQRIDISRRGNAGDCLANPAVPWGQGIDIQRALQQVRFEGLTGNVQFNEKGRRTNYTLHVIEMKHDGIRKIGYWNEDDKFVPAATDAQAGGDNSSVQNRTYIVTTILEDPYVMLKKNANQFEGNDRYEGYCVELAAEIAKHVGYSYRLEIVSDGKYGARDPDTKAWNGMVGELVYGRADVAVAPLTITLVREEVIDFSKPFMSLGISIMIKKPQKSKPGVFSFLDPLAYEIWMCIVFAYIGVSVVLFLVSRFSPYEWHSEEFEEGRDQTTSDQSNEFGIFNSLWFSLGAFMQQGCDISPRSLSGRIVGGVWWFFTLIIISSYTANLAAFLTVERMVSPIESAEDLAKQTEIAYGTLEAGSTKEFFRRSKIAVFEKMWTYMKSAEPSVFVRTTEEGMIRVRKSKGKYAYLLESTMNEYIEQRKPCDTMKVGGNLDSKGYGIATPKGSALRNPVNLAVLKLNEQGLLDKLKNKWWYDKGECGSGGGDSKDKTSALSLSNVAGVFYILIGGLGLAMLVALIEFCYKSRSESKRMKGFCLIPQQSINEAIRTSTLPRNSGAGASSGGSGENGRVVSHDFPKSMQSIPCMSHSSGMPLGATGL
Sequence of UniProt P41231 (whole entry, looked up): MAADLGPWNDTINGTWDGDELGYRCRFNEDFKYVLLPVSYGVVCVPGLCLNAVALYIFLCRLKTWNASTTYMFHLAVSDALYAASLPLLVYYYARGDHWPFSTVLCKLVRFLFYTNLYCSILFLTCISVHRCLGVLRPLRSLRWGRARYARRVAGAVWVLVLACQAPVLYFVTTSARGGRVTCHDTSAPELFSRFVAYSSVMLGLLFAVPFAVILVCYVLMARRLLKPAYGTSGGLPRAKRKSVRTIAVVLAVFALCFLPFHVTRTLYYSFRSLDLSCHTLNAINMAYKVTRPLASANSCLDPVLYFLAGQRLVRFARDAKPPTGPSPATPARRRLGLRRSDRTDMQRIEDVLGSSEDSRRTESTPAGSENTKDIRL

Compound | target | assay | test system | setting | EC50
Cn1cc(-c2ccc(Cn3ccccc3=O)c(F)c2)cn1 | CHRM1 | calcium response, positive allosteric modulator | HM1 cells | added: acetylcholine | > 30 µM
CCCC[C@H](NC(=O)[C@H](CO)NC(=O)[C@H](Cc1ccc(O)cc1)NC(=O)[C@H](CO)NC(C)=O)C(=O)N[C@@H](C)C(=O)N[C@@H](Cc1c[nH]cn1)C(=O)N[C@H](Cc1ccccc1)C(=O)N[C@@H](CCCNC(=N)N)C(=O)N[C@@H](Cc1c[nH]c2ccccc12)C(=O)NCC(=O)N[C@@H](CCCCN)C(=O)N1CCC[C@H]1C(=O)N[C@H](C(N)=O)C(C)C | Melanocortin receptor 4 |  |  |  | 0.00058 ± 3e-05 µM
CCCCCC(O)/C=C/C=O (stereo not shown) | Trpa1 (Mus musculus, UniProt Q8BLA8) | calcium signal, agonist, fluorescence |  |  | 19.9 µM
C[C@H](CCC(=O)N[C@@H](Cc1ccc(O)cc1)C(=O)O)[C@H]1CC[C@H]2[C@@H]3[C@H](O)C[C@@H]4C[C@H](O)CC[C@]4(C)[C@H]3CC[C@]12C | GPBAR1 | G protein activation, agonist, BRET |  |  | 88.9 µM
O=C(c1ccc(-n2nc(C(F)(F)F)c3c2CCCC3)cc1)N1CCCC1 | Glutamate receptor 1, flip isoform (GRIA1, Homo sapiens, UniProt P42261) | glutamate-induced Ca2+ flux, potentiator, FLIPR | HEK293 | added: glutamate 100 µM | 20 µM and 25.1 µM
CO/N=c1/ccn([C@@H]2O[C@H](COP(=O)(O)CP(=O)(O)O)[C@@H](O)[C@H]2O)c(=O)[nH]1 | P2RY4 | PLC activation, agonist | 1321N1, transfected |  | > 10 µM
CCCCCCCCCCCCCCCC(OC)C(=O)O (racemic) | DNA topoisomerase IB | DNA relaxation, inhibitor |  | 30 min, 37 °C | > 1000 µM
CC(C)(O)CCCC1=CCC(C=O)CC1 (stereo not shown) | Or10j5 (Mus musculus, UniProt Q62007) | ion current, agonist, patch clamp |  |  | 0.6 µM
CCCC[C@H](NC(=O)[C@H](CO)NC(=O)[C@H](Cc1ccc(O)cc1)NC(=O)[C@H](C)NC(C)=O)C(=O)N[C@@H](CCC(=O)O)C(=O)N[C@@H](Cc1c[nH]cn1)C(=O)N[C@H](Cc1ccccc1)C(=O)N[C@@H](CCCNC(=N)N)C(=O)N[C@@H](Cc1c[nH]c2ccccc12)C(=O)NCC(=O)N[C@@H](CCCCN)C(=O)N1CCC[C@H]1C(=O)N[C@H](C(N)=O)C(C)C | Melanocortin receptor 4 |  |  |  | 0.00017 ± 3e-05 µM
O=S(=O)(O)CCN1CCN(CCO)CC1 | Neuronal acetylcholine receptor; alpha4/beta2, (α4)2(β2)3 stoichiometry (Homo sapiens, UniProt P17787+P43681) | ion current, potentiator, two-electrode voltage clamp | Xenopus oocytes | high-sensitivity α4β2 stoichiometry, added: 10 µM acetylcholine | 7.1 µM
Cn1cc(-c2ccc(CN3C(=O)C4(CCNC4)c4ccccc43)c(F)c2)cn1 (stereo not shown) | CHRM1 | acetylcholine response, positive allosteric modulator | cell-based | inactive up to 30 µM | > 30 µM
CCCN(Cc1ccccc1OC)C(=O)c1ccc(Br)c(Br)c1 | ATP2A2 | Ca2+-ATPase activity, activator | porcine cardiac SR vesicles | maximal Ca2+ activity | 0.9 ± 0.4 µM
CCCC[C@H](NC(=O)[C@H](CO)NC(=O)[C@H](Cc1ccc(O)cc1)NC(=O)[C@H](CO)NC(C)=O)C(=O)N[C@@H](CCC(=O)O)C(=O)N[C@@H](Cc1c[nH]cn1)C(=O)N[C@H](Cc1ccccc1)C(=O)N[C@@H](CCCNC(=N)N)C(=O)N[C@@H](Cc1c[nH]c2ccccc12)C(=O)NCC(=O)N[C@@H](CCCCN)C(=O)N1CCC[C@H]1C(=O)N[C@@H](C)C(N)=O | Melanocortin receptor 4 |  |  |  | 0.00035 ± 9e-05 µM
O=C(NN=Cc1ccccc1)c1ccccc1O | ESRRA (Homo sapiens, UniProt P11474) | reporter gene, agonist, luciferase reporter | HEK293 transfected |  | 0.619 µM
Nc1ncnc2c1ncn2[C@@H]1O[C@H](COP(=O)(O)OP(=O)(O)OP(=O)(O)O)[C@@H](O)[C@H]1O | Ribonuclease L (Sus scrofa, UniProt A5H025) | binding, fluorescence polarization |  | added: BODIPY-labelled compound | 1.85 ± 0.08 µM
CSCC[C@H](NC(=O)[C@H](CO)NC(=O)[C@H](Cc1ccc(O)cc1)NC(=O)[C@H](CO)NC(C)=O)C(=O)N[C@@H](CCC(=O)O)C(=O)N[C@@H](Cc1c[nH]cn1)C(=O)N[C@@H](Cc1ccccc1)C(=O)N[C@@H](CCCNC(=N)N)C(=O)N[C@@H](Cc1c[nH]c2ccccc12)C(=O)N[C@@H](C)C(=O)N[C@@H](CCCCN)C(=O)N1CCC[C@H]1C(=O)N[C@H](C(N)=O)C(C)C | Melanocortin receptor 4 |  |  |  | 0.074 ± 0.02 µM
COC(=O)CC[C@@H](C)[C@H]1CC[C@H]2[C@@H]3CC[C@@H]4C[C@@H](OC(=O)CCCCCC(=O)O)CC[C@]4(C)[C@H]3CC[C@]12C | human 20S proteasome | chymotrypsin-like activity, activator |  | without PA28 | > 15 µM

Compound | target | assay | test system | setting | EC50
Nc1nc2ccc(CN[C@@H]3CO[C@H](C(c4ccc(F)cc4)c4ccc(F)cc4)C[C@H]3O)cc2s1 | KCNH2 (Homo sapiens, UniProt Q12809) | thallium flux, inhibitor |  |  | 14.8 ± 3.31 µM
BP(=O)(OC[C@H]1O[C@@H](n2cnc3c(N)ncnc32)[C@H](O)[C@@H]1O)OP(=O)(O)OP(=O)(O)OC[C@H]1O[C@@H](n2cnc3c(N)ncnc32)[C@H](O)[C@@H]1O (stereo partly shown) | P2RY4 | intracellular calcium rise, agonist | 1321N1 expressing human P2Y4 | 37 °C | > 100 µM
CCN(Cc1ccccc1OC)C(=O)c1ccc(F)c(Br)c1 | ATP2A2 | Ca2+-ATPase activity, activator | porcine cardiac SR vesicles | maximal Ca2+ activity | 6.1 ± 2.8 µM
CC1(C)Cc2cc(Cl)cc(C3CC3CN)c2O1 (racemic) | HTR2C (Homo sapiens, UniProt P28335) | calcium signal, agonist, fluorescence |  |  | 0.6 µM
c1cnc2c(c1)ccc1cccnc12 | TAS2R5 (Homo sapiens, UniProt Q9NYW4) | calcium signal, agonist |  |  | 22.9 µM
O=c1[nH]c(=O)n([C@@H]2O[C@H](COP(=O)(O)OP(=O)(O)OP(=O)(O)O[C@H]3O[C@H](CO)[C@@H](O)[C@H](O)[C@H]3O)[C@@H](O)[C@H]2O)cc1I | P2RY4 | PLC activation, agonist | 1321N1, transfected |  | > 10 µM
CSCC[C@H](NC(=O)[C@H](CO)NC(=O)[C@H](Cc1ccc(O)cc1)NC(=O)[C@H](CO)NC(C)=O)C(=O)N[C@@H](C)C(=O)N[C@@H](Cc1c[nH]cn1)C(=O)N[C@@H](Cc1ccccc1)C(=O)N[C@@H](CCCNC(=N)N)C(=O)N[C@@H](Cc1c[nH]c2ccccc12)C(=O)NCC(=O)N[C@@H](CCCCN)C(=O)N1CCC[C@H]1C(=O)N[C@H](C(N)=O)C(C)C | Melanocortin receptor 4 |  |  |  | 0.37 ± 0.025 µM
C[C@H](CCC(=O)N[C@@H](Cc1ccccc1)C(=O)O)[C@H]1CC[C@H]2[C@@H]3[C@H](O)C[C@@H]4C[C@H](O)CC[C@]4(C)[C@H]3C[C@H](O)[C@]12C | GPBAR1 | G protein activation, agonist, BRET |  |  | 265 µM
CSCC[C@H](NC(=O)[C@H](CO)NC(=O)[C@H](Cc1ccc(O)cc1)NC(=O)[C@H](CO)NC(C)=O)C(=O)N[C@@H](CCC(=O)O)C(=O)N[C@@H](Cc1c[nH]cn1)C(=O)N[C@@H](Cc1ccccc1)C(=O)N[C@@H](C)C(=O)N[C@@H](Cc1c[nH]c2ccccc12)C(=O)NCC(=O)N[C@@H](CCCCN)C(=O)N1CCC[C@H]1C(=O)N[C@H](C(N)=O)C(C)C | Melanocortin receptor 4 |  |  |  | 11.3 ± 7.33 µM
O=c1ccn([C@@H]2O[C@H](COP(=O)(O)OP(=O)(O)OP(=O)(O)OC3CCCCC3)[C@@H](O)[C@H]2O)c(=O)[nH]1 | P2RY4 | PLC activation, agonist | 1321N1, transfected |  | > 10 µM
CC1=NN(CC(=O)Nc2ccc(Br)cc2)C(=O)CC1c1ccccc1 (racemic) | N-formyl peptide receptor 3 (Homo sapiens, UniProt P25089) | calcium signal, agonist |  |  | 0.49 µM
BP(=O)(OC[C@H]1O[C@@H](n2cnc3c(N)ncnc32)[C@H](O)[C@@H]1O)OP(=O)(O)OP(=O)(O)OP(=O)(O)OC[C@H]1O[C@@H](n2cnc3c(N)ncnc32)[C@H](O)[C@@H]1O (stereo partly shown) | P2Y purinoceptor 2 (P2RY2, Homo sapiens, UniProt P41231) | calcium signal, agonist, fluorescence |  |  | 64.2 µM
CCCN(Cc1ccccc1OC)C(=O)c1ccc(F)c(Br)c1 | ATP2A2 | Ca2+-ATPase activity, activator | porcine cardiac SR vesicles | maximal Ca2+ activity | 4 ± 2.1 µM
CCCC[C@H](NC(=O)[C@H](CO)NC(=O)[C@H](Cc1ccc(O)cc1)NC(=O)[C@H](CO)NC(C)=O)C(=O)N[C@@H](CCC(=O)O)C(=O)N[C@@H](Cc1c[nH]cn1)C(=O)N[C@H](Cc1ccccc1)C(=O)N[C@@H](CCCNC(=N)N)C(=O)N[C@@H](Cc1c[nH]c2ccccc12)C(=O)N[C@@H](C)C(=O)N[C@@H](CCCCN)C(=O)N1CCC[C@H]1C(=O)N[C@H](C(N)=O)C(C)C | Melanocortin receptor 4 |  |  |  | 0.0002 ± 3e-05 µM
CCCCCCCCCCCCCC#CCCCCC(=O)O | DNA topoisomerase IB | DNA relaxation, inhibitor |  | 30 min, 37 °C, added: supercoiled pHOT plasmid | 49 µM and 36 to 49 µM
CCCN(Cc1ccccc1OC)C(=O)c1scc(C)c1C | ATP2A2 | Ca2+-ATPase activity, activator | porcine cardiac SR vesicles | maximal Ca2+ activity | 4.8 ± 0.7 µM
CCCC[C@H](NC(=O)[C@H](CO)NC(=O)[C@H](Cc1ccc(O)cc1)NC(=O)[C@H](CO)NC(C)=O)C(=O)N[C@@H](CCC(=O)O)C(=O)N[C@@H](Cc1c[nH]cn1)C(=O)N[C@H](Cc1ccccc1)C(=O)N[C@@H](CCCNC(=N)N)C(=O)N[C@@H](Cc1c[nH]c2ccccc12)C(=O)NCC(=O)N[C@@H](CCCCN)C(=O)N[C@@H](C)C(=O)N[C@H](C(N)=O)C(C)C | Melanocortin receptor 4 |  |  |  | 0.00083 ± 0.00018 µM

For quick reference, copied from above:
Compound | target | assay | test system | setting | EC50
C[C@H](CCC(=O)N[C@@H](Cc1ccc(O)cc1)C(=O)O)[C@H]1CC[C@H]2[C@@H]3[C@H](O)C[C@@H]4C[C@H](O)CC[C@]4(C)[C@H]3CC[C@]12C | GPBAR1 | G protein activation, agonist, BRET |  |  | 88.9 µM
O=C(c1ccc(-n2nc(C(F)(F)F)c3c2CCCC3)cc1)N1CCCC1 | Glutamate receptor 1, flip isoform (GRIA1, Homo sapiens, UniProt P42261) | glutamate-induced Ca2+ flux, potentiator, FLIPR | HEK293 | added: glutamate 100 µM | 20 µM and 25.1 µM
CO/N=c1/ccn([C@@H]2O[C@H](COP(=O)(O)CP(=O)(O)O)[C@@H](O)[C@H]2O)c(=O)[nH]1 | P2RY4 | PLC activation, agonist | 1321N1, transfected |  | > 10 µM
CCCCCCCCCCCCCCCC(OC)C(=O)O (racemic) | DNA topoisomerase IB | DNA relaxation, inhibitor |  | 30 min, 37 °C | > 1000 µM
CC(C)(O)CCCC1=CCC(C=O)CC1 (stereo not shown) | Or10j5 (Mus musculus, UniProt Q62007) | ion current, agonist, patch clamp |  |  | 0.6 µM
